Experimental data of several laboratories.
Lines come from different studies, so protocols differ. Several values in a cell are separate wells, animals, samples, runs or records.
Target: Protein kinase C epsilon type (PRKCE, Homo sapiens, UniProt Q02156)
One construct used (Q02156 1-737): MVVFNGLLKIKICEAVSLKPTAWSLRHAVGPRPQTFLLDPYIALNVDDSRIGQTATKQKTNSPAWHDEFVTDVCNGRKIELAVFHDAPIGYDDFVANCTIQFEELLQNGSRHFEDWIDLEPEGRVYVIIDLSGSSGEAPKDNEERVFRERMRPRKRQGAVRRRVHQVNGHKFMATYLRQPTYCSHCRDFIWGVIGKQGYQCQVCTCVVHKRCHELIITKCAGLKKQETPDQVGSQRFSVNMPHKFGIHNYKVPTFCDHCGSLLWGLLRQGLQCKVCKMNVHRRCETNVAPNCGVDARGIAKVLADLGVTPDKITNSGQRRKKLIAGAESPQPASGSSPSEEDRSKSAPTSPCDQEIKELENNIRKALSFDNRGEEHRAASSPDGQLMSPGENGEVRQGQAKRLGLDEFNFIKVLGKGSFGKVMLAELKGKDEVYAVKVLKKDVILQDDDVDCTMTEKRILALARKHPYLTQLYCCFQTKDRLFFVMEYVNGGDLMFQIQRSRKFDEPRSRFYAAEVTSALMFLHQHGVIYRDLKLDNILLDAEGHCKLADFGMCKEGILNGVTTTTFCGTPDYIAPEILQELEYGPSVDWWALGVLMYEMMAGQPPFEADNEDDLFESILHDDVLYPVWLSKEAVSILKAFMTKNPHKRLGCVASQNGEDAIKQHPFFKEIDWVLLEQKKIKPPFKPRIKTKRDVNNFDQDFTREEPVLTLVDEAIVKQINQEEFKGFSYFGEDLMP

With [CH3][Ti+2][O]C(=O)c1ccc([S][Au][PH](c2ccccc2)(c2ccccc2)c2ccccc2)cc1.c1cc[cH-]c1.c1cc[cH-]c1 the remaining activity was 90.8% and 88.9% (kinase activity; 1 µM, with: ATP 10 µM).
The inhibition of CC(C)[C@H]1NC(=O)C[C@H]2/C=C/CCSSC[C@@H](NC1=O)C(=O)N[C@H](Cc1cccc3ccccc13)C(=O)NCC(=O)O2 is reported as 14.3% (enzyme activity, inhibitor; 10 µM).
The inhibition of CS(C)(=O)=Nc1ccc(-c2ccc(-c3nc4cc(O[C@@H]5CO[C@H]6[C@@H]5OC[C@H]6O)[nH]c4cc3F)cc2)cc1 is reported as 4% (enzyme activity, inhibitor; 10 µM).
The remaining activity of O=C1NC(=O)c2c1c1cc(F)c[n+]3c1c1c2c2cc(O)ccc2[n]1[Ru-4]312([N]=C=S)[S+]3CC[S+]1CC[S+]2CC3 (centres unmarked) is reported as 62% (enzyme activity; 100 nM, human enzyme, with: 10 µM ATP; relative to: untreated).
The remaining binding of CCOC(=O)[C@@H]1Cc2c(cc([N+](=O)[O-])cc2[N+](=O)[O-])[C@H](O)[C@]12C(=O)Nc1ccc(Br)cc12 is reported as 71% (binding, competition with immobilised ligand; 0.1 µM).
The inhibition of C[C@H](NCc1ccc(-c2ccc(C(F)(F)F)cc2)cc1)C(N)=O is reported as 0% (cell-free assay, competition with immobilised ligand; 1 µM).
O=C(N[C@@H]1c2ccccc2C[C@H]1N1CCCC1)c1ccc(-c2ccnc3[nH]ccc23)nc1 gave a remaining binding of 0% (binding, competition with immobilised ligand; 3 µM).
Nc1ccc(/C=C/C(=O)N2CCc3c(oc4c(-c5ccc(F)cc5)cc(-c5ccc(C(=O)N6CCC(F)(F)CC6)cn5)cc34)C2)cn1 has a remaining binding of 90% (binding, competition with immobilised ligand; 1 µM).
